Experimental data gathered from unrelated publications.
A part holds a random share of what one study measured. “And” joins repeats or separate records; there may be more than shown.
Chain of UniProt Q9QZL0 (whole entry, unmodified, looked up): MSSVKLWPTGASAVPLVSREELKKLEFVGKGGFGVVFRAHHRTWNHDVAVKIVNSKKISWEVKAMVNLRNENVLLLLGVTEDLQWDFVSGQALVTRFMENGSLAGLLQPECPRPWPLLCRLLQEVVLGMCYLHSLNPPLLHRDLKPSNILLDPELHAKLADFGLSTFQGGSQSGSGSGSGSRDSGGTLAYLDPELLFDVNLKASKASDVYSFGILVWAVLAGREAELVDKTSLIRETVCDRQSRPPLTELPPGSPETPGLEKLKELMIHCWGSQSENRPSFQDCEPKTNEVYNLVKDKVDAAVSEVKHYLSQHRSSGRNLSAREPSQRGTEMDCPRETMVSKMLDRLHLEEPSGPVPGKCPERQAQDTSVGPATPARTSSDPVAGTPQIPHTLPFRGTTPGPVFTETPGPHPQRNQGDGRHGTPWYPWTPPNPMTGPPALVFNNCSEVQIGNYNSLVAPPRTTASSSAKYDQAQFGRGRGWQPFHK
Chain of UniProt Q96SW2 (whole entry, looked up): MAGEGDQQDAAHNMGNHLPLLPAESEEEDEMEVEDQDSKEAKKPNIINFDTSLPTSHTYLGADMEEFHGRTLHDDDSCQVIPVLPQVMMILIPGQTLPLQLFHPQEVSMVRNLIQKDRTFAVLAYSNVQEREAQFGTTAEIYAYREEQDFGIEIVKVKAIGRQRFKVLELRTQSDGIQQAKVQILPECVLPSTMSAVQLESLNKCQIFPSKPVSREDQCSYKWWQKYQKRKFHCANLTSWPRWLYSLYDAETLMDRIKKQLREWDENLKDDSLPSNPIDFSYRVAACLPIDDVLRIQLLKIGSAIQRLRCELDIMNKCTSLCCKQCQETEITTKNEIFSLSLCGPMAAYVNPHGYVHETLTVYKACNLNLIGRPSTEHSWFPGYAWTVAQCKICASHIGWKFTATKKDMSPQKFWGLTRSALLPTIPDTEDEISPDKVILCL
Chain of UniProt Q9UKS7 (whole entry, looked up): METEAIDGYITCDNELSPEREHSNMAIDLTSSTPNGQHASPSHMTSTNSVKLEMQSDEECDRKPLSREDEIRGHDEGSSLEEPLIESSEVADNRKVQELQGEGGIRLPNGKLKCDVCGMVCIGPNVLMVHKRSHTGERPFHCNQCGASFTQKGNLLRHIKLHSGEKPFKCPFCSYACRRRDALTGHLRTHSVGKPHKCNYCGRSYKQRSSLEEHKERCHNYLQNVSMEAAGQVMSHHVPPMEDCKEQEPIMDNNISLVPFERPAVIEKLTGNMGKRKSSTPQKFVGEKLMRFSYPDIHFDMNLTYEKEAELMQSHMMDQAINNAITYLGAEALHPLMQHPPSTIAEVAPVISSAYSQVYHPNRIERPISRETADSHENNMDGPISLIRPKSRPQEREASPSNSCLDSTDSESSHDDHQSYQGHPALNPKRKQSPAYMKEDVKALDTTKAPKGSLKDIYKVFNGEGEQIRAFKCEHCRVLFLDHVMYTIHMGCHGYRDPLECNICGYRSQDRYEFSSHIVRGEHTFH
Chain of UniProt P28335 (whole entry, looked up): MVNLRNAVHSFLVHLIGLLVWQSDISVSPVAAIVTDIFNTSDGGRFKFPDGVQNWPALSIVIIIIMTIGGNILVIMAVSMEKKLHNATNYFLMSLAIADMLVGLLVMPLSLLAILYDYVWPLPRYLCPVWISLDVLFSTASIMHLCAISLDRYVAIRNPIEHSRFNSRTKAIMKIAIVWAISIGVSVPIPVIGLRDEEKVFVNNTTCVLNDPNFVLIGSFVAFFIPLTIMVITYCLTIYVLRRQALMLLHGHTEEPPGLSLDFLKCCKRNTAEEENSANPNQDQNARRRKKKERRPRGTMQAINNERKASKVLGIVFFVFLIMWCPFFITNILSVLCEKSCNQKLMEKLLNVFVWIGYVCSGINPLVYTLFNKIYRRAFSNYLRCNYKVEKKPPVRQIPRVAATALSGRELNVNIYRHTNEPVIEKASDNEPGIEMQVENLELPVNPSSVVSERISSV

Series 1
Target: Tyrosine-protein kinase ITK/TSK (ITK, Homo sapiens, UniProt Q08881)
Chain of UniProt Q08881 (whole entry, looked up): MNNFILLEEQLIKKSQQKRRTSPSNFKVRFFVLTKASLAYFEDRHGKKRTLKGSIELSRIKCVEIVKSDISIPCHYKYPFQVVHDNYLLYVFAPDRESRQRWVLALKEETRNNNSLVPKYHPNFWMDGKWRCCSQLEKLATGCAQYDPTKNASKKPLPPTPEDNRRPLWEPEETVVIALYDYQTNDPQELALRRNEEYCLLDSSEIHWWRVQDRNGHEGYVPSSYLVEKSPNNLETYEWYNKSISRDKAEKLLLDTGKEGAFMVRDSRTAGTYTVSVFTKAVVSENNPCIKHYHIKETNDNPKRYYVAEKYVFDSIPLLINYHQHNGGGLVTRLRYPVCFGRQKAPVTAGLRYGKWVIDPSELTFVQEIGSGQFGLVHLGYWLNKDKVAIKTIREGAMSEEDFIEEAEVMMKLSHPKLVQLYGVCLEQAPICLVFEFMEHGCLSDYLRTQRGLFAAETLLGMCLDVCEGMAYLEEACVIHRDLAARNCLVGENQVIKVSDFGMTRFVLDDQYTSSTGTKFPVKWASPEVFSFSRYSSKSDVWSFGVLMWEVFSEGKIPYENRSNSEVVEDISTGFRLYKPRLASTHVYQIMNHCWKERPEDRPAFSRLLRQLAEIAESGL
Read-out: enzyme activity
Action: inhibitor
Tested at: 0.5 µM
Relative to: control
| SMILES | remaining activity [%] |
| --- | --- |
| CCCCc1c(-c2ccc(OC)cc2)[nH]c2nccnc12 | 99.4 |
| O=C1Cc2c([nH]c3ccc(Br)cc23)-c2ccccc2N1 | 102 |
| O=C1Nc2ccccc2/C1=C\c1c(Cl)[nH]c2ccccc12 | 104 |
| COc1ccc2c(c1)c(C1=C(c3c[nH]c4ccccc34)C(=O)NC1=O)cn2CCCN(C)C | 70.4 |
| O=C1NC(=O)c2c1c1c3ccccc3[nH]c1c1[nH]c3cc(Br)ccc3c21 | 84.1 |
| Oc1cccc(-c2nc(N3CCOCC3)c3oc4ncccc4c3n2)c1 | 93.1 |
| COc1ccc(COc2ccc(Cc3cnc(N)nc3N)cc2OC)cc1 | 98.1 |
| CCCNC(=O)Nc1ccc(Oc2ncnc3cc(OC)c(OC)cc23)cc1Cl | 96.9 |

Series 2
Structure (SMILES): CC(=O)N[C@@H](Cc1c[nH]c2ccccc12)C(=O)N[C@@H](CCC(=O)C=[N+]=[N-])C(=O)OC(C)C
Route: subcutaneous
Time: 5 days
| assay | system | setting | scale | metabolite peak intensity |
| --- | --- | --- | --- | --- |
| UPLC-MS/MS, refers to: imidazole lactate | EL4, C57BL/6 CES1-/- mice, EL4 tumour, tumour | 0.3 mg/kg/day DON equivalent, normalised to tissue mass | higher = more metabolite | 2.44e+06 a.u. and 1.56e+06 a.u. and 705000 a.u. and 2.24e+06 a.u. and 1.29e+06 a.u. and 1.72e+06 a.u. |
| UPLC-MS/MS, refers to: 5-methylcytidine | C57BL/6 CES1-/- mice, EL4 tumour, EL4 tumour | 0.3 mg/kg/day DON equivalent | – | 1.17e+06 a.u. and 1.39e+06 a.u. and 814000 a.u. and 1.23e+06 a.u. and 1.24e+06 a.u. |
| UPLC-MS/MS, refers to: hydroxyproline | EL4, C57BL/6 CES1-/- mice, EL4 tumour, tumour | 0.3 mg/kg/day DON equivalent, normalised to tissue mass | higher = more metabolite | 1.17e+08 a.u. and 2.17e+08 a.u. and 2.41e+08 a.u. and 1.64e+08 a.u. and 1.8e+08 a.u. and 1.53e+08 a.u. |
| UPLC-MS/MS, refers to: 3-(3-hydroxyphenyl)propionate sulfate | C57BL/6 CES1-/- mice, EL4 tumour, EL4 tumour | 0.3 mg/kg/day DON equivalent | – | 92800 a.u. and 74700 a.u. and 124000 a.u. and 42400 a.u. and 118000 a.u. |
| UPLC-MS/MS metabolomics, refers to: guanine | C57BL/6 CES1-/- mice, EL4 tumour, EL4 tumour | 0.3 mg/kg/day DON equivalent, normalised to tissue mass | – | 1.6e+06 a.u. and 1.27e+06 a.u. and 1.26e+06 a.u. and 904000 a.u. and 779000 a.u. and 939000 a.u. |
| UPLC-MS/MS metabolomics, refers to: gluconate | C57BL/6 CES1-/- mice, EL4 tumour, EL4 tumour | 0.3 mg/kg/day DON equivalent, normalised to tissue mass | – | 6.7e+06 a.u. and 9.92e+06 a.u. and 9.79e+06 a.u. and 9.22e+06 a.u. and 8.61e+06 a.u. |
| UPLC-MS/MS, refers to: 5-methylthioadenosine | C57BL/6 CES1-/- mice, EL4 tumour, EL4 tumour | 0.3 mg/kg/day DON equivalent | – | 4.47e+07 a.u. and 2.6e+07 a.u. and 2.64e+07 a.u. and 4.74e+07 a.u. and 4.21e+07 a.u. and 4.52e+07 a.u. |
| LC-MS/MS, refers to: cysteine sulfinic acid | C57BL/6 CES1-/- mice, EL4 tumour | 0.3 mg/kg DON equivalent | – | 368000 a.u. and 676000 a.u. and 588000 a.u. and 182000 a.u. and 603000 a.u. and 489000 a.u. |

Other studies, line by line
| SMILES | target | assay | system | setting | endpoint | value |
| --- | --- | --- | --- | --- | --- | --- |
| O=C(Nc1ccc(-n2nc(-c3cccnc3)cc2C(F)(F)F)cn1)c1ccc(-c2ccccc2)c(F)c1 | 5-hydroxytryptamine receptor 2C (HTR2C, Homo sapiens, UniProt P28335) | binding, radioligand binding | – | 10 µM | inhibition | -17.3% |
| O=C1CCC(N2Cc3c(ccc4c3OCC43CCC(Oc4ccccc4)CC3)C2=O)C(=O)N1 (stereo not shown) | CRBN/Zinc finger protein Helios (Homo sapiens, UniProt Q96SW2+Q9UKS7) | degrader, HiBiT | HEK293 | 13.72 nM | protein remaining | 99.5% |
| CC(C)S(=O)(=O)c1ccc2nccc(Nc3ccc4scnc4c3)c2c1 | Receptor-interacting serine/threonine-protein kinase 3 (Ripk3, Mus musculus, UniProt Q9QZL0, C111A) | kinase domain dimerization, size-exclusion chromatography | Superdex 200 column | concentration not given | elution volume | 14.9 mL and 14.7 mL |
